Measurements of several laboratories.
Numbered parts are unrelated; each lists some results of a single study.

Set 1
Target: RING finger protein unkempt homolog, zinc fingers 1-6, GST-SBP tag (UNK, Homo sapiens, UniProt Q9C0B0, residues 30-357)
Technique: RNA Bind-n-Seq
Molecule type: RNA
Medium: in vitro
Tested at: not given
Setting: RNA with constant flanks, ends assumed
Reference: input RNA pool
Direction: higher = stronger binding
Construct (chain): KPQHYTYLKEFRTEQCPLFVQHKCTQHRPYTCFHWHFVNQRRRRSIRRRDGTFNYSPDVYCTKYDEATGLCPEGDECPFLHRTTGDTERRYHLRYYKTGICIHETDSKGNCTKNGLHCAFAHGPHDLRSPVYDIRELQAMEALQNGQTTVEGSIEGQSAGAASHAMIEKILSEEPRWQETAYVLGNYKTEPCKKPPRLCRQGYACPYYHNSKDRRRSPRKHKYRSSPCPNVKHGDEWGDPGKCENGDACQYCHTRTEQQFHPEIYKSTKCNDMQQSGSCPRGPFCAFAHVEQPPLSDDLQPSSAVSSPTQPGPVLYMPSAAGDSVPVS
Strand	bound/input enrichment [ratio]
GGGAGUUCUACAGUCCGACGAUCUCUCCUGUAAUCACUUUUGGAGGGCUGCUUGGAGAAGCUACAGAAGGCAGAAUAAGUGCAACCGAGUCUCUUUUUGGAGCAUCAUUAACUGGGAUUGCCUAUUCAUUGUUUGCUGGGCAACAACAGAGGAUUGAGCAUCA	0.2
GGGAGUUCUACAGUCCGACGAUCAUACCUUCCCAAAUUGGUAACCUGGAGGCCUUGAGAGACCUUAAUGUAAGAAGAAAUCACCCCGUACAUUUGCCUGAAGAGCUGGCGGAGUUGCCUUUGAUACGGUUAGACUUCUCAUGCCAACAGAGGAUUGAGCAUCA	0.262
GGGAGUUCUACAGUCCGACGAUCGUAAAGGAAGAUGAAGAAGAAGUUUCAGAUAAGGGCAGUGAUUCUGAAGAAGAAGAAACCAACCGAGAUUCCCAAAGUGAGAAAGAUGAUGGUAGUGACAGAGACUCUGAUAGAGAGCAACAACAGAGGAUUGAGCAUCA	0.723
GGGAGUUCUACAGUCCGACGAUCAUGGAGGCGUCCAGCGAGCCGCCGCUGGAUGCUAAGUCCGAUGUCACCAACCAGCUUGCCGAUUUUCAGUGGAAACUGGGUAUGGCUGUGAGCUCAGACACUUGCAGAUCUCUUAAGUAUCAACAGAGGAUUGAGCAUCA	0.0771
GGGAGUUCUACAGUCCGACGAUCCUCCCGGGGGGAGUCCAGGCCUUGGCUUUACCCAACGAAGAGGGUGCCACACCAUCCGACUCCGCUUUACGUGAAGGACACUCCAAGCUGGUGGAAGACGUCACAAAUUUUCAGGGCAGACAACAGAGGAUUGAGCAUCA	0.154
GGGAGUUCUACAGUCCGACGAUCAUUCAGAAUCACUUUGUGGAUGAGUAUGACCCUACGAUAGAGGACUCCUACAGGAAACAAGCCGUAAUUGAUGGAGAAACCUGUCUCUUGGAUAUUCUCGACACAGCAGGUCAAGAGGAGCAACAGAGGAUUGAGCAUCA	0.102
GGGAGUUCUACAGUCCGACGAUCCUUUUAUGCGACCAUUGUUGCAGUGGUCGGGCUUCAUGUGGUGCUGGCAAUUUUCGUCUUCACCGUGUGGAAGGAGGGCUUGCCCCAGUGGCGGGAAAACAAAAACGAAUAGAGCAGCUUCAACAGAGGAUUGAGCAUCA	0.347
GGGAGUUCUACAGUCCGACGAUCAAGGGUGAUUACUUCCGGUACCUUGCUGAAGUUGCGUGUGGUGAUGAUCGAAAACAAACGACCGAUAAUUCCCAAGGAGCUUACCAAGAGGCAUUUGAUAUAAGCAAGAAAGAGAUGCAACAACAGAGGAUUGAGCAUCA	0.184

Set 2
Target: Interferon regulatory factor 5, full length, phosphomimetic (IRF5, Homo sapiens, UniProt Q13568-2, residues 1-514, K96S/S451D/S453D/S456D/S462D)
Technique: protein-binding microarray
Molecule type: double-stranded DNA, one strand shown
Medium: in vitro
Tested at: 250 nM
Setting: 60-bp whole probe
Together with: salmon DNA 0.4 mg/ml
Reference: random background probes
Direction: higher = stronger binding
Constant ends, left off below: GCCTAGCAC … GTCTTGATTCGCTTGACGCTGCTG
Strand	log fluorescence
ATTGATAGTTTCACAATGCCGTGCTAG	4.2 z-score
TCAAGTCTCATATTTATACTGTGCTAG	0.762 z-score
TTAGATATCAGTTACGATTAGTGCTAG	1.71 z-score
GACTGACTGGGGTTTCGGGACGTGCTA	1.19 z-score
GACGGTCTCTGTTTCGGGACGTGCTAG	2.94 z-score
TCAGTTGTAGTTTTCATACTGTGCTAG	1.02 z-score
GACGGTTTCGGTATCTGGACGTGCTAG	9.67 z-score
TTAGGTTTCGACTTTCAGTTAGTGCTA	8.3 z-score
AACGAACTGGGGTATCGAGACGTGCTA	0.298 z-score
GACGCTCTCAGACTGGAGACGTGCTAG	-0.459 z-score
ACTGATCACCGATTTCCTTCAGTGCTA	0.291 z-score
TCATTTTTACTTTCTGAACTGTGCTAG	3.51 z-score
GACGGTCTCTGTCTCGGGACGTGCTAG	-0.183 z-score
GACGATTCCGGGTTTCGAGACGTGCTA	1.92 z-score
GACGATATCAGTTGCGAGACGTGCTAG	1.57 z-score
GACGGTCTCCTACTGCCGACGTGCTAG	-0.362 z-score
GACGGTTTGGACTATCGGGACGTGCTA	0.748 z-score
GACGATTTCAGACTGGAGATGTGCTAG	0.32 z-score
TTAGGTTTCCTTATCATTTAGTGCTAG	1.53 z-score

Set 3
Target: Sal-like protein 4, full length isoform B (SALL4, Homo sapiens, UniProt Q9UJQ4-2, residues 1-616)
Technique: universal PBM
Molecule type: double-stranded DNA, one strand shown
Medium: in vitro
Tested at: not given
Setting: 8-mer, flanks averaged, mean of replicates
Direction: higher = stronger binding
Strand	E-score
ACTCCTTA	0.114
GTCGCGAA	-0.117
CCCCCTCG	-0.216
CCGCCGTA	-0.231
TTTACAAA	0.24
AGGCTCGC	-0.309
GGGTGAAC	-0.0088
AAGGAGCA	-0.0493
ACTACAAC	0.135
CCTGCAAG	-0.257
GCCGTGCC	-0.226
GCCCCGCC	-0.252
CTGGAAGC	-0.292
AATTGTGG	0.142
CAAGCAGG	-0.221
GAGCAAGA	-0.0439
AACCTTTG	0.0738
ATTTTCGG	0.149

Set 4
Target: Histone acetyltransferase KAT6A, winged helix 2, GST fusion (KAT6A, Homo sapiens, UniProt Q92794, residues 85-181)
Technique: protein binding microarray
Molecule type: double-stranded DNA, one strand shown
Medium: in vitro
Tested at: not given
Setting: 8-mer, flanks averaged, mean of 2 arrays, mostly near background
Reference: not given
Direction: higher = stronger binding
Target sequence (chain): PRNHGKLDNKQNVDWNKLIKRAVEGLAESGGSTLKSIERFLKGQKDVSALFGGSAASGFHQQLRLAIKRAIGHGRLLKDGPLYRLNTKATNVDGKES
Strand	E-score
ATTGAATA	0.0941
GCCTGTGA	-0.14
AATTAGAC	0.0839
GCAATACC	-0.0653
AGGTGTAT	-0.139
CGGTGTTA	-0.0515
GCTTAGAC	-0.174
CAGTTCGA	-0.0239
CCCAAGTC	-0.228
AGAGGCGA	-0.00282
CAGTTACG	-0.126
GACTGGCC	-0.0425
GAATTCTC	-0.0533
CAGCCGAA	0.0578
GTTCACCA	0.0216
CATCCTGG	0.0347
CGGGAGAC	0.0771
ACTCGAGA	-0.0281
AATCCGAC	-0.0544
GCGATAGC	0.163
AACGGTGG	-0.0841
CCACACTA	0.0614
CCCAGCCA	0.0369
